# Assay results of several laboratories.
# Each numbered part is a random draw from the data of one study; scales do not carry over between parts. Changes are numbered by the printed parent chain.
# Chain of UniProt P78368 (whole entry, looked up): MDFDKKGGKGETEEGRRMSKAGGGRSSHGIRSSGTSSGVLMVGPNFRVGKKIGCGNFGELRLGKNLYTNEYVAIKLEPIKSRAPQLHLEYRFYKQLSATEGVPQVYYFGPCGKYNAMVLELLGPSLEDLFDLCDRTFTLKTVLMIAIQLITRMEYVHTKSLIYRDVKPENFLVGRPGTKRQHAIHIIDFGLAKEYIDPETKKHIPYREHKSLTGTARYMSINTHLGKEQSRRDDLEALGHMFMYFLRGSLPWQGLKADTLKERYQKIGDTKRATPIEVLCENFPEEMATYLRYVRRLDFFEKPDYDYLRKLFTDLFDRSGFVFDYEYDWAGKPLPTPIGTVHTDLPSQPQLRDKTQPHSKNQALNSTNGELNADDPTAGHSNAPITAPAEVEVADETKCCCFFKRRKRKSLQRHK
# Chain of UniProt Q15349 (whole entry, looked up): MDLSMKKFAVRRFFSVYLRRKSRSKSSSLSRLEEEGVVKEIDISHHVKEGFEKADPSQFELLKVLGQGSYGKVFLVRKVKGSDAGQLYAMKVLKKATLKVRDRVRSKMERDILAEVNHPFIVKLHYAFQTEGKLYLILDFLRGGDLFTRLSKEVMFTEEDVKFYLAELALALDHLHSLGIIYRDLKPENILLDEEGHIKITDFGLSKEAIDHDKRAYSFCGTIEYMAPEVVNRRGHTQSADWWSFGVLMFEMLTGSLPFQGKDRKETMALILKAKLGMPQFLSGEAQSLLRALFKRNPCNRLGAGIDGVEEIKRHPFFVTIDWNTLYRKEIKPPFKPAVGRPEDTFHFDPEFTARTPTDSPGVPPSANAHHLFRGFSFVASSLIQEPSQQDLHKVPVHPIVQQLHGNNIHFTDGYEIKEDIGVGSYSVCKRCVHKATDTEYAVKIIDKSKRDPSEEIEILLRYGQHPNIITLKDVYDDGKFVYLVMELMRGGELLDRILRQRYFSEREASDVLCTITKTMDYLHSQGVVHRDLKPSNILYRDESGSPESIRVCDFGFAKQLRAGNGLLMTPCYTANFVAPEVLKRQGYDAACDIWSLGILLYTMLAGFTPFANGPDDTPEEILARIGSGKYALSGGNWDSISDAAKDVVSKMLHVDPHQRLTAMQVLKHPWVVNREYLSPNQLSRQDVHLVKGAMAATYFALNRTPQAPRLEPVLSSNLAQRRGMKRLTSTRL
# Chain of UniProt P22607 (whole entry, looked up): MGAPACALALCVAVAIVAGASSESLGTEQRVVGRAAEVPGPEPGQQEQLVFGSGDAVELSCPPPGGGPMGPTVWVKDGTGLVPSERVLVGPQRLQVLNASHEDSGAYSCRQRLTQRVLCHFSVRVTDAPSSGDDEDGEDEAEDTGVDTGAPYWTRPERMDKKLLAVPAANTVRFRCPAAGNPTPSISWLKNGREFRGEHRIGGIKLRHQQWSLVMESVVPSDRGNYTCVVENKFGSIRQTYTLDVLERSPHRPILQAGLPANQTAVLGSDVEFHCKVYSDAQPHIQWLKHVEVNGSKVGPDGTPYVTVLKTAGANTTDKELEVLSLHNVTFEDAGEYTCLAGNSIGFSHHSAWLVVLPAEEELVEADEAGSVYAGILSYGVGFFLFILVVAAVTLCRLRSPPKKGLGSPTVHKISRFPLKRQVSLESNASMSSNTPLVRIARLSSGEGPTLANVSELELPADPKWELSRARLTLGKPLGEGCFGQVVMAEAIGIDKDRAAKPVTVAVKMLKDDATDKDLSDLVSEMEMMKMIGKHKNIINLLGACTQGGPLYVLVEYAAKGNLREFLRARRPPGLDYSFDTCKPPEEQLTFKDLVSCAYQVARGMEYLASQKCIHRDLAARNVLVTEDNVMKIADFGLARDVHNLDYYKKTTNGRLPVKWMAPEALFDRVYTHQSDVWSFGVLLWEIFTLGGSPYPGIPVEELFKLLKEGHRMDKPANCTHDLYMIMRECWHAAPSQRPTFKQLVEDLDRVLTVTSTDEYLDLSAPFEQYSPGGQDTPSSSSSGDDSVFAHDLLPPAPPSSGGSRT
# Chain of UniProt Q8IYT8 (whole entry, looked up): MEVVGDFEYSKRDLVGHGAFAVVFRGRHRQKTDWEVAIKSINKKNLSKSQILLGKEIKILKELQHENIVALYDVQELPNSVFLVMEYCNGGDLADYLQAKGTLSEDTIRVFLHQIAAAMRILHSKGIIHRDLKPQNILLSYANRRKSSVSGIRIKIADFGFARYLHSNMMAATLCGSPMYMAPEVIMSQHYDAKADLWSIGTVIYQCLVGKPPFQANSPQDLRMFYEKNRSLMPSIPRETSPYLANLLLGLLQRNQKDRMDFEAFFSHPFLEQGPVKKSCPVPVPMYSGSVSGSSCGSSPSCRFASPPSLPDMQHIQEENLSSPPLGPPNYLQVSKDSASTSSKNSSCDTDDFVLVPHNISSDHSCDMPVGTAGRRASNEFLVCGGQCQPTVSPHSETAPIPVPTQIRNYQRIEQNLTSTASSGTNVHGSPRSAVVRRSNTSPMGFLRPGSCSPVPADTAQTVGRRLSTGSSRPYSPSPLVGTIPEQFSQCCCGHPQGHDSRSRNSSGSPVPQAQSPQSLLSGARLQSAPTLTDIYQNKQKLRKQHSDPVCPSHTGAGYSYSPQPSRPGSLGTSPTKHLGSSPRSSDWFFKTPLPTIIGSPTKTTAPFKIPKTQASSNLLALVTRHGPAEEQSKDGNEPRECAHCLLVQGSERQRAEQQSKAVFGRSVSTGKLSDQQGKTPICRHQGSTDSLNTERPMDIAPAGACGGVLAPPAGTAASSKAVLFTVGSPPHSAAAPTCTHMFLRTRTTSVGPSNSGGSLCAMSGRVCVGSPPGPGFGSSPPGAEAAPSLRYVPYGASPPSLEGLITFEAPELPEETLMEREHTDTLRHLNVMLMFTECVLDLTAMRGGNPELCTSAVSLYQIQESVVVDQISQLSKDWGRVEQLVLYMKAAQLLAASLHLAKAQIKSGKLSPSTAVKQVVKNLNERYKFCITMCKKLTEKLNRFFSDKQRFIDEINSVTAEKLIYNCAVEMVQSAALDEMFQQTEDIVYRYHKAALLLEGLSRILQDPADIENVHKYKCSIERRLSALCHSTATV
# Chain of UniProt P11362 (whole entry, looked up): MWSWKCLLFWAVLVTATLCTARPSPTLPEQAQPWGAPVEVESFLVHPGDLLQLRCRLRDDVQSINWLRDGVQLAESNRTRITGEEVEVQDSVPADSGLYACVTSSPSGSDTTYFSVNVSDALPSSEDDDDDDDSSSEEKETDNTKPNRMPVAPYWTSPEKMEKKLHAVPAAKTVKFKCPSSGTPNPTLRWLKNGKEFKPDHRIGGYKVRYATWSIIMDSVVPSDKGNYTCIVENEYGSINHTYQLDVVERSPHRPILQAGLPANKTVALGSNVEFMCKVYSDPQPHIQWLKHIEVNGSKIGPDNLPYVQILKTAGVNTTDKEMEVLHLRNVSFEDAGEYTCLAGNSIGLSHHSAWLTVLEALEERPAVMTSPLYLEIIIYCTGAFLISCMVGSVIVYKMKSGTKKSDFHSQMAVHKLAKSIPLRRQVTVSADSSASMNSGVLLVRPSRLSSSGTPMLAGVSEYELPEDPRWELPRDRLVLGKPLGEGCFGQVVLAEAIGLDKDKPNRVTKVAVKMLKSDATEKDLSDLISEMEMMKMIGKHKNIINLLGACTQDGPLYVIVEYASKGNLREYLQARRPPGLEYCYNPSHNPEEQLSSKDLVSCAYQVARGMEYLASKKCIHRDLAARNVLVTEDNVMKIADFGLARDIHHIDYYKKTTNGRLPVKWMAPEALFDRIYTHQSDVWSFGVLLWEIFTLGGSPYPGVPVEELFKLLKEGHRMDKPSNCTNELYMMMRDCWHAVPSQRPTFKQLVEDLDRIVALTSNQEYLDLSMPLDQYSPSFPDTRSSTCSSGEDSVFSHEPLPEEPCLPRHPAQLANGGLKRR
# Chain of UniProt P27361 (whole entry, looked up): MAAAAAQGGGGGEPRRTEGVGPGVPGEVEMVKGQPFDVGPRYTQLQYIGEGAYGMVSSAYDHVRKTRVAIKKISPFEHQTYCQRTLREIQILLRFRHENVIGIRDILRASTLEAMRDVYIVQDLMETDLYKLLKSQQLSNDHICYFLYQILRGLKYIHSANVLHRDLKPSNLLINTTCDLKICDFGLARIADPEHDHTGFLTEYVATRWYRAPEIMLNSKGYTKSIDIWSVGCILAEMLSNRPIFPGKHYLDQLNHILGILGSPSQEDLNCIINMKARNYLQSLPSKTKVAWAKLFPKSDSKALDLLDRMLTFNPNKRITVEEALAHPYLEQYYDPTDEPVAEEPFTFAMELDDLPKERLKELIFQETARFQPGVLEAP
# Chain of UniProt Q9HC98 (whole entry, looked up): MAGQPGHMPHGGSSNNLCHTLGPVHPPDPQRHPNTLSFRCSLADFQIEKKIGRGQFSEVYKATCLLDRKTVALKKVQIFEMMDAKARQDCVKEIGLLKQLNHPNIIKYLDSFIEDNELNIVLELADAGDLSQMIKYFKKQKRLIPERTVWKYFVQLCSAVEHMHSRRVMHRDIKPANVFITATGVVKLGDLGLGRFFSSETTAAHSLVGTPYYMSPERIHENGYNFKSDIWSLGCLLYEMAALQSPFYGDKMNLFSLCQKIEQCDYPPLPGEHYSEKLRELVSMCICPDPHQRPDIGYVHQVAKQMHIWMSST
# Chain of UniProt P36896 (whole entry, looked up): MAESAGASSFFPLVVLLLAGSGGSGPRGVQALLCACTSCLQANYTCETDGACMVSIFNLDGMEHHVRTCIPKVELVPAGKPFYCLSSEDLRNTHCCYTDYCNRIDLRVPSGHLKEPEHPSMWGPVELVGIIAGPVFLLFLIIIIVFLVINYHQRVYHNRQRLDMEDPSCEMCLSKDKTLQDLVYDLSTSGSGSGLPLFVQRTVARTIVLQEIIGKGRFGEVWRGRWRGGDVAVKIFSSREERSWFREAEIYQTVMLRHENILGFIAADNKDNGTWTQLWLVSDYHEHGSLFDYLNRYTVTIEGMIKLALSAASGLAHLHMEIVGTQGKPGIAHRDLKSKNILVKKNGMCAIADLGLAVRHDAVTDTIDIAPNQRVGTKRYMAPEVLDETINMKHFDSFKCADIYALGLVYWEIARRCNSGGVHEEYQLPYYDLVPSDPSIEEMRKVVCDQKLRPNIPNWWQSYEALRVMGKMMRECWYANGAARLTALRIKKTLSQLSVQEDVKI

# Sample 1
# Target: ABI1, truncated, D143A, DHFR fusion (Arabidopsis thaliana, UniProt P49597)
# Technique: DHFR PCA, dose-response
# Matrix: yeast
# Setting: Hill fit, mean, not affinity
# Together with: (+)-ABA, dose series
# Direction: lower = more sensitive
# Starting sequence: PYL1, truncated, DHFR fusion (Arabidopsis thaliana, UniProt Q8VZS8); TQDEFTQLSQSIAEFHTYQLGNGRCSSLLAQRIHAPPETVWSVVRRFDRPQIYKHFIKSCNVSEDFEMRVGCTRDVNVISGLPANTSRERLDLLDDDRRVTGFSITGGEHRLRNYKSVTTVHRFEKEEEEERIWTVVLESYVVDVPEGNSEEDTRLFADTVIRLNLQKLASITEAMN
Variant,ABA EC50 [µM]
G23D,3.36
D48T,172
T6A,2.4
D97A,2.45
E147T,4.37
V137I,13.2
E174D,46.5
E127S,2.13

# Sample 2
# Target: Histone acetyltransferase KAT6A, winged helix 1, GST fusion (KAT6A, Homo sapiens, UniProt Q92794, residues 1-85)
# Technique: protein binding microarray
# Molecule type: double-stranded DNA, one strand shown
# Matrix: in vitro
# Concentration: not given
# Setting: 8-mer, flanks averaged, mean of 2 arrays, mostly near background
# Reference: not given
# Direction: higher = stronger binding
# Construct (chain): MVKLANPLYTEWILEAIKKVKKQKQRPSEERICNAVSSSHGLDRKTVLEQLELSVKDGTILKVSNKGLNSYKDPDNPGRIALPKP
Oligonucleotide,E-score
CTCTCTTA,-0.128
ATACTCAG,0.0412
CTCTGTGA,-0.207
CGGGCAAA,0.226
TACGCAAA,-0.0797
AGCACGAG,-0.208
CCATTAGA,-0.175
CACGCCGC,0.372

# Sample 3
# Cell line: mouse MPNST tumor cells
# Technique: high-content immunofluorescence imaging
# Item: nuclear SOX9
# Concentration: 10 µM
# Time: 12 h
# Setting: mean of 2 replicates
# Reference: DMSO control
# Direction: higher = more nuclear SOX9
SMILES,nuclear SOX9 intensity
COc1ccc([C@@H]2CC(=O)c3c(O)cc(O[C@@H]4O[C@H](CO[C@@H]5O[C@@H](C)[C@H](O)[C@@H](O)[C@H]5O)[C@@H](O)[C@H](O)[C@H]4O)cc3O2)cc1O,101 % of DMSO
CN(CCCN1c2ccccc2CCc2ccccc21)CC(=O)c1ccc(Cl)cc1,95.6 % of DMSO
COc1ccc(-c2nnc(Nc3nc4c(OC)cccc4s3)o2)cc1,91 % of DMSO
C=CCNC(=O)c1cc([N+](=O)[O-])cc2c(=O)[nH]c(Nc3ccc(Cl)c(Cl)c3)nc12,90.7 % of DMSO
Cc1nc(Nc2ncc(C(=O)Nc3c(C)cccc3Cl)s2)cc(N2CCN(CCO)CC2)n1,152 % of DMSO

# Sample 4
# Compound: N#C/C(=C(/N)SC1C=CC=CC1)c1cccc(C(O)c2ccncc2)c1 (stereo not shown)
# Effect on: enzyme activity
# Mode: inhibitor
# Concentration: 0.5 µM
# Reference: control
target,remaining activity [%]
"Rhodopsin kinase GRK7 (GRK7, Homo sapiens, UniProt Q8WTQ7)",108
"Dual specificity mitogen-activated protein kinase kinase 2 (MAP2K2, Homo sapiens, UniProt P36507)",84.4
"Casein kinase I isoform gamma-3 (CSNK1G3, Homo sapiens, UniProt Q9Y6M4)",99.5
"Ribosomal protein S6 kinase alpha-2 (RPS6KA2, Homo sapiens, UniProt Q15349)",164
"Tyrosine-protein kinase Mer (MERTK, Homo sapiens, UniProt Q12866)",99.7
"Tyrosine-protein kinase ABL2 (ABL2, Homo sapiens, UniProt P42684)",105
"Serine/threonine-protein kinase Nek6 (NEK6, Homo sapiens, UniProt Q9HC98)",108
"Serine/threonine-protein kinase TBK1 (TBK1, Homo sapiens, UniProt Q9UHD2)",108
"Tyrosine-protein kinase FRK (FRK, Homo sapiens, UniProt P42685)",106
"Wee1-like protein kinase (WEE1, Homo sapiens, UniProt P30291)",70.9
"Serine/threonine-protein kinase ULK2 (ULK2, Homo sapiens, UniProt Q8IYT8)",114
"Mitogen-activated protein kinase kinase kinase 5 (MAP3K5, Homo sapiens, UniProt Q99683)",108
"Macrophage-stimulating protein receptor (MST1R, Homo sapiens, UniProt Q04912)",102
"Serine/threonine-protein kinase ULK3 (ULK3, Homo sapiens, UniProt Q6PHR2)",127
"Glycogen synthase kinase-3 beta (GSK3B, Homo sapiens, UniProt P49841)",95.7
"Fibroblast growth factor receptor 1 (FGFR1, Homo sapiens, UniProt P11362)",115
"Angiopoietin-1 receptor (TEK, Homo sapiens, UniProt Q02763)",101
"MAP kinase-activated protein kinase 2 (MAPKAPK2, Homo sapiens, UniProt P49137)",101
"Activin receptor type-1B (ACVR1B, Homo sapiens, UniProt P36896)",104
"Fibroblast growth factor receptor 3 (FGFR3, Homo sapiens, UniProt P22607)",96.3
"Serine/threonine-protein kinase Nek1 (NEK1, Homo sapiens, UniProt Q96PY6)",85
"Mitogen-activated protein kinase 3 (MAPK3, Homo sapiens, UniProt P27361)",107
"Casein kinase I isoform gamma-2 (CSNK1G2, Homo sapiens, UniProt P78368)",98.8

# Sample 5
# Cell line: HaCaT
# Concentration: 100 µM
# Time: 36 h
SMILES,viability
CCCCCCCCCCCCCCCC[N+](C)(C)CCN(Cc1ccc(OC)cc1)c1ncccn1,7.78%
Cc1nccn1CC1CCc2c(c3ccccc3n2C)C1=O (stereo not shown),61.4%
O=c1ccc2cc3ccoc3cc2o1,68.6%
O=C[C@H](O)[C@@H](O)[C@H](O)[C@H](O)CO,75.3%

# Sample 6
# SMILES: CS(=O)(=O)c1cc(C2(NC(=O)c3cncc4c3cnn4-c3ccc(F)cc3)CC2)ccn1
# Effect on: cell-free assay
# Technique: competition with immobilised ligand
# Concentration: 1 µM
target,remaining binding [%]
"Microtubule-associated serine/threonine-protein kinase 1 (MAST1, Homo sapiens, UniProt Q9Y2H9)",100
"Transient receptor potential cation channel subfamily M member 6 (TRPM6, Homo sapiens, UniProt Q9BX84)",91
"Mitogen-activated protein kinase 6 (MAPK6, Homo sapiens, UniProt Q16659)",100

# Single results of other studies
Compound,species,matrix,concentration,time,measurement,result
O=C1CC2CS(=O)(=O)CC2N1c1ccc(-c2nnc3n2CCCCC3)cc1 (stereo not shown),human,microsomes or S9,2 µM,0.5 h,remaining compound,> 100%
